Assay results pooled from the literature.
Protocols differ between the studies behind these lines. ± gives the spread as reported.

Compound	tested on	assay	test system	conditions	how to read	measurement	result
Cc1ncsc1-c1ccc(C(C)NC(=O)C2CC(O)CN2C(=O)C(NC(=O)CCCCCCCCCCN2CCCC(Nc3ncc(Cl)c(Nc4ccccc4S(=O)(=O)C(C)C)n3)C2)C(C)(C)C)cc1 (centres unmarked)	22Rv1	RNA-seq, refers to: ZFP36L2 mRNA		concentration not given	baseline: DMSO	log2 fold change	-1.34
C=CC(=O)Nc1cccc(Cn2ncc3cnc(Nc4cnn(CCOC)c4)nc32)c1	MST1 human	binding, KINOMEscan		100 nM	lower = stronger binding	percent of control	100%
O=C(N/N=C/c1cc[n+](CC2CC2)c2ccccc12)c1ccc2ccc3ccc(C(=O)N/N=C/c4cc[n+](CC5CC5)c5ccccc45)nc3c2n1	myc22 MYC G4-DNA parallel	FRET melting		1 µM, K1 buffer, DNA 0.2 µM, added: ds26 10 µM		ΔTm	24.1 ± 1.2 °C
CNS(=O)(=O)Nc1nccc(Cc2c(C)c3ccc(Oc4ncccc4F)cc3oc2=O)c1F	COV318	cell viability		7 days		IC50	> 1 µM
C[n+]1ccc(/C=N/NC(=O)c2ccc3ccc4ccc(C(=O)N/N=C/c5cc[n+](C)cc5)nc4c3n2)cc1	myc22 MYC G4-DNA parallel	FRET melting		1 µM, K1 buffer, DNA 0.2 µM, added: ds26 10 µM		ΔTm	12.6 ± 0.8 °C
C=CC(=O)N1[C@H](c2ccc3c(c2)OCO3)c2[nH]c3ccccc3c2C[C@@H]1C(=O)N1CCN(C)CC1	human cyclin E1 N112C-3xFLAG:CDK2	co-IP with TMT proteomics, refers to: HSPA5		concentration not given, P11021	baseline: wild type DMSO	relative co-enrichment	103%
COc1ccc2cc3[n+](cc2c1OCCCOC(=O)c1cscn1)CCc1cc2c(cc1-3)OCO2			C57BL/6 mice, high-fat diet	oral gavage, 40 mg/kg daily, 14 weeks	baseline: HFD control	plasma total cholesterol reduction	38.7%
CCCCNCCO.O=C(O)C(Cl)Cl	Amaranthus retroflexus	herbicidal activity		15 mg/mL, 21 days, pre-emergence greenhouse		inhibition	0%
C[n+]1ccc(/C=N/NC(=O)c2ccc3ccc(C(=O)N/N=C/c4cc[n+](C)cc4)nc3n2)cc1	myc22 MYC G4-DNA parallel	FRET melting		1 µM, K1 buffer, DNA 0.2 µM		ΔTm	6.9 ± 0.2 °C
CC(=O)[O-].O.O.O.O.[Co+2].[O-]c1ccc(Br)cc1C=NCCN1CCOCC1		superoxide scavenging		200 µM		inhibition	58.3%
CN1CCC[C@]1(C)/C=C/S(=O)(=O)NC(=O)Nc1c2c(cc3c1CCC3)CCC2			human, whole blood ex vivo	400 mg single dose, 24 h, single ascending dose, added: LPS and ATP		IL-1β inhibition	99.2%
C=C(NC(=O)c1csc(-c2nc3c(cc2O)-c2nc(cs2)C(=O)NC(C(C)O)C(=O)NC(=C(C)OC)c2nc(cs2)C(=O)NC2c4nc(cs4)C(=O)NC(COC(=O)c4c5c6c(cccc6n4O)COC(=O)C(OC4CC(C)(O)C(N(C)C)C(C)O4)C2OC5)c2nc-3cs2)n1)C(N)=O (centres unmarked)	Staphylococcus aureus		MRSA ATCC 43300	1/2 × MIC		post-antibiotic effect	< 0.6 h
COc1cc(O)ccc1CCC(c1ccc(O)cc1)c1cc2c(c(C)c1O)OC(c1ccc(O)cc1)CC2 (mixture of isomers)		refers to: LTB4	human whole blood	0.3 µM, added: Escherichia coli		amount	5560 ± 2080 pg/mL blood
CCN(C(=O)c1cc(F)ccc1Oc1nncnc1N1CCC2(C1)CN([C@H](CCCN(C)CCOC)C(C)C)C2)C(C)C	DU-145	cell growth or viability		7 days		GI50	> 10 µM
CC[n+]1cccc2cc(/C=N/NC(=O)c3ccc4ccc(C(=O)N/N=C/c5ccc6c(ccc[n+]6CC)c5)nc4n3)ccc21	myc22 MYC G4-DNA parallel	FRET melting		1 µM, K1 buffer, DNA 0.2 µM		ΔTm	19.5 ± 0.6 °C
COC1CN([C@H]2CC[C@H]([C@@]3(C)Oc4c(Cl)cc(C(=O)NCc5c(SC)cc(C)[nH]c5=O)c(C)c4O3)CC2)C1		RNA-seq, refers to: ZNF219	human, whole blood	dose not given, 24 h	baseline: pretreatment baseline	log2 fold change	1.41
CCN(CC)CC(=O)Nc1cccc(-n2cc(-c3ccc4ccc(-c5cn(-c6cccc(NC(=O)CN(CC)CC)c6)nn5)cc4c3)nn2)c1	RCC4	PCR angiogenesis array, refers to: BAI1		5 x IC50, 4 h, normoxia	baseline: untreated	fold regulation	-1.92
CC(O)CNCC(C)O.O=C(O)C(Cl)Cl (centres unmarked)	Eclipta prostrata			15 mg/mL, 21 days, post-emergence, greenhouse		herbicidal inhibition	0%
C[n+]1cc(/C=N/NC(=O)c2cccc(C(=O)N/N=C/c3cc4ccccc4[n+](C)c3)c2)cc2ccccc21	myc22 MYC G4-DNA parallel	FRET melting		1 µM, K1 buffer, DNA 0.2 µM		ΔTm	12.5 ± 0.3 °C
Nc1ncc(-c2cc(-c3cnn(CC(F)(F)F)c3)ncc2F)nc1C(=O)NC1CNCC(F)C1 (centres unmarked)	CIT	KINOMEscan		1 µM	baseline: DMSO control	remaining binding	79%
O=C(N/N=C/c1ccc(C[n+]2ccccc2)cc1)N/N=C/c1ccc(C[n+]2ccccc2)cc1	myc22 MYC G4-DNA parallel	FRET melting		1 µM, K1 buffer, DNA 0.2 µM		ΔTm	4.1 ± 0.6 °C
COc1ccc(C(=O)CCc2cc(C(CCc3ccc(O)cc3OC)c3ccc(O)cc3)c(O)cc2OC)cc1 (racemic)			human blood	1 µM, added: A23187		EPA level	69800 ± 17100 pg/mL
C[n+]1cc(/C=N/NC(=O)C(=O)N/N=C/c2cc3ccccc3[n+](C)c2)cc2ccccc21	myc22 MYC G4-DNA parallel	FRET melting		1 µM, K1 buffer, DNA 0.2 µM, added: ds26 10 µM		ΔTm	4.8 ± 0.6 °C
c1ccc(-c2n[nH]cc2-c2ccnc3ccccc23)nc1	GCN2 (Candida albicans)	kinase binding, MIB/MS competition	Candida albicans lysate	10 µM	baseline: DMSO	log2 fold change	-0.14
CN1CCCNC(=O)c2cccc(c2)C(=O)NCCCN(C)CCCNc2cccc3c2C(=O)c2cccc(c2C3=O)NCCC1	SAS	RNA-Seq, refers to: BRCA2 mRNA		1 µM, 6 h	baseline: untreated cells	log2 fold change	1.05
CC[n+]1cccc2cc(/C=N/NC(=O)c3cncc(C(=O)N/N=C/c4ccc5c(ccc[n+]5CC)c4)n3)ccc21	myc22 MYC G4-DNA parallel	FRET melting		1 µM, K1 buffer, DNA 0.2 µM		ΔTm	19.6 ± 0.4 °C

A few entries again:
Compound	tested on	assay	test system	conditions	how to read	measurement	result
Nc1ncc(-c2cc(-c3cnn(CC(F)(F)F)c3)ncc2F)nc1C(=O)NC1CNCC(F)C1 (centres unmarked)	CIT	KINOMEscan		1 µM	baseline: DMSO control	remaining binding	79%
O=C(N/N=C/c1ccc(C[n+]2ccccc2)cc1)N/N=C/c1ccc(C[n+]2ccccc2)cc1	myc22 MYC G4-DNA parallel	FRET melting		1 µM, K1 buffer, DNA 0.2 µM		ΔTm	4.1 ± 0.6 °C
